Measurements pooled from the literature.
Every numbered part comes from another study and shows a few of its results, in no order.
UniProt Q9HC98, sequence (whole entry, looked up): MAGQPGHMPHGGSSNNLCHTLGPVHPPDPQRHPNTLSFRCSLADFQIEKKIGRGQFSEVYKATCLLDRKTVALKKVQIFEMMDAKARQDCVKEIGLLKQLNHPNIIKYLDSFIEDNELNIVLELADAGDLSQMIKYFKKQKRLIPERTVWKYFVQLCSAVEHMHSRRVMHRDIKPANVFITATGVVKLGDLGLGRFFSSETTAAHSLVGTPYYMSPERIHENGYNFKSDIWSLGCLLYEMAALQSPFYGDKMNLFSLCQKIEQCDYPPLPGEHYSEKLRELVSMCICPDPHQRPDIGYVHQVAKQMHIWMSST
UniProt Q9UQ88, sequence (whole entry, looked up): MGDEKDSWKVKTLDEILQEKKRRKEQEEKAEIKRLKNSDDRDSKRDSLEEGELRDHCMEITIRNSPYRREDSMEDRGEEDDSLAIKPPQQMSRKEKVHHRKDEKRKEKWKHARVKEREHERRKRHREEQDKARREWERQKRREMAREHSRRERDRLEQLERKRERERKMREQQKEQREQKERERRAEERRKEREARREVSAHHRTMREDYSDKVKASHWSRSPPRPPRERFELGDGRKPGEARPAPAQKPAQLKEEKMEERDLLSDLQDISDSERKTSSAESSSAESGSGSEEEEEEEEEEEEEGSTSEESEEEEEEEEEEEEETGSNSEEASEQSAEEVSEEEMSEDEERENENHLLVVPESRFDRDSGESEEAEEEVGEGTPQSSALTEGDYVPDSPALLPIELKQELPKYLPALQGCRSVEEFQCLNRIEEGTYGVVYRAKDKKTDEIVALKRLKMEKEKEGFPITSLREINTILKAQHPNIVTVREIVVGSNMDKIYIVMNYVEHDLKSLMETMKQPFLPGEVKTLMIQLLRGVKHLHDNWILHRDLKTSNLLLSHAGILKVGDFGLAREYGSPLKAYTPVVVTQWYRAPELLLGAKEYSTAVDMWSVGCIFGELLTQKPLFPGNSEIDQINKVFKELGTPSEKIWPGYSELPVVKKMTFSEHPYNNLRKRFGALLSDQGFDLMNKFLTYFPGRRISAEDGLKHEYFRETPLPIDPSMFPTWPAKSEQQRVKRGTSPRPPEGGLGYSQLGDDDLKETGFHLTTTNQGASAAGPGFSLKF
UniProt P17948, sequence (whole entry, looked up): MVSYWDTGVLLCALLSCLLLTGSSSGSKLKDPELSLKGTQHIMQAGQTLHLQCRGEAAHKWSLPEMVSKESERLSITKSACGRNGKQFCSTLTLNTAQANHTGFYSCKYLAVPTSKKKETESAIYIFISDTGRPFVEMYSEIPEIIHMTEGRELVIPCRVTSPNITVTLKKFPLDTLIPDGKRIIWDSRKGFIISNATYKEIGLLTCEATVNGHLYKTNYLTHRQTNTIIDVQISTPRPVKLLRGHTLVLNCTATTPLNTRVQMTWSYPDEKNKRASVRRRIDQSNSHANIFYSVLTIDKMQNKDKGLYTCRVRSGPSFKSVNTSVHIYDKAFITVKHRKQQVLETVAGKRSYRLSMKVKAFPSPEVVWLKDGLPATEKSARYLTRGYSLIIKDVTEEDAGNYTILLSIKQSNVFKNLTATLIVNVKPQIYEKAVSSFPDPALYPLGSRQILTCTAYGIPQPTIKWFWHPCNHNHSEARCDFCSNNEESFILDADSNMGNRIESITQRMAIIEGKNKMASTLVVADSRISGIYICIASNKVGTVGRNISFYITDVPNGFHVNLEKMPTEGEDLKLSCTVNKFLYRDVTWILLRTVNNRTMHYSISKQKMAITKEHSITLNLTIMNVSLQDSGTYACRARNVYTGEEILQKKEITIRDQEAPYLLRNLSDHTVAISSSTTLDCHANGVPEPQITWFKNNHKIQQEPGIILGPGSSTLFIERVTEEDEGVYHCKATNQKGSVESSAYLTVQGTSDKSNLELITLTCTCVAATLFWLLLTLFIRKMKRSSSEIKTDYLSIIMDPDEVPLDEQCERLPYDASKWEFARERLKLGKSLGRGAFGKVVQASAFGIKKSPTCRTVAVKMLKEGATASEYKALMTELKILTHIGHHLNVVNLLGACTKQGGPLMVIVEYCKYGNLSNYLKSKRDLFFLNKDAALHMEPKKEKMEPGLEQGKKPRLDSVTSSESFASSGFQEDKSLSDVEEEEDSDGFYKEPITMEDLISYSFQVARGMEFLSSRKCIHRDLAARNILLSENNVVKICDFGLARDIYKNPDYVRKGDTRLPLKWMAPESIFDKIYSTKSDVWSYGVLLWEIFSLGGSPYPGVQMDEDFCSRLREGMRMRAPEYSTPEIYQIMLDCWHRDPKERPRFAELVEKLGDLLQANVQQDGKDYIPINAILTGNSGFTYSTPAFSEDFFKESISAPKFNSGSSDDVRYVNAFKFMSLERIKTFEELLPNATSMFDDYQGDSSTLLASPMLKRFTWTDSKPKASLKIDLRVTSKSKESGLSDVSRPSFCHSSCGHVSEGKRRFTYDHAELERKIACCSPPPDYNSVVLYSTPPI
UniProt Q8TDX7, sequence (whole entry, looked up): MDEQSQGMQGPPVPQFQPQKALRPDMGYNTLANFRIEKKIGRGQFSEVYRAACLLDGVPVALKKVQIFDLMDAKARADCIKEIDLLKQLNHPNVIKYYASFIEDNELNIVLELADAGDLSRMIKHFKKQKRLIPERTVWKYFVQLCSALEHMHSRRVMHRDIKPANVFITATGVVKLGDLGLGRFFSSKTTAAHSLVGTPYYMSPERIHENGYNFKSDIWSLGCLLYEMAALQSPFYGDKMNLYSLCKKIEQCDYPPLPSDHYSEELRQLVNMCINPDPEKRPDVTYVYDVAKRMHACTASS
UniProt P09619, sequence (whole entry, looked up): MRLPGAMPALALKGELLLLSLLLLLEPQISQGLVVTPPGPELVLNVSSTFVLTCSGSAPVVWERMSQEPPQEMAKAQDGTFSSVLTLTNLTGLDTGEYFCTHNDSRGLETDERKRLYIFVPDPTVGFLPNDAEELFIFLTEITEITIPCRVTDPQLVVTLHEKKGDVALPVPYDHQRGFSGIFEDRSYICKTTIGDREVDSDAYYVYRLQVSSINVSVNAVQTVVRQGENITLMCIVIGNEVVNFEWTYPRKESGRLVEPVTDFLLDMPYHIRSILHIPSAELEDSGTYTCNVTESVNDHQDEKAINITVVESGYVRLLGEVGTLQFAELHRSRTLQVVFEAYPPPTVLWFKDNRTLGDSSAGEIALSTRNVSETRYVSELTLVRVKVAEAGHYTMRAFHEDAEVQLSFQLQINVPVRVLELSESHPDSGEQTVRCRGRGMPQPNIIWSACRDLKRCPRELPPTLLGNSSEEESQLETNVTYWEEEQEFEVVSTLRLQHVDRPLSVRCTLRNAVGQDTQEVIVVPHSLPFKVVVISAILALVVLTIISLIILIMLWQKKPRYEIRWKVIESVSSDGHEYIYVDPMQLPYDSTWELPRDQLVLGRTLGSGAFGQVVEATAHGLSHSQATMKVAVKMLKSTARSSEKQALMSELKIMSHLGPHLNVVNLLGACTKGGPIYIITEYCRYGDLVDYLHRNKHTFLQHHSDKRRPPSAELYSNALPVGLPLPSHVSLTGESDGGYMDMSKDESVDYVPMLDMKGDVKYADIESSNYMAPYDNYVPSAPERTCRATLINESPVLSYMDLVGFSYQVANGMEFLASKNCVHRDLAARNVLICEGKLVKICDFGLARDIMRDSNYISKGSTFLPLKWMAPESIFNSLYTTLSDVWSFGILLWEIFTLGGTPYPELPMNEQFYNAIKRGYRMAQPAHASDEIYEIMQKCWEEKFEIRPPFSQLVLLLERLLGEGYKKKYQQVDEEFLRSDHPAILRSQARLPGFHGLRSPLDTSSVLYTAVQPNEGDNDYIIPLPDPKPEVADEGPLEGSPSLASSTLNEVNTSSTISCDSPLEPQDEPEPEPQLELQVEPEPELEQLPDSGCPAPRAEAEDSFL

Set 1
Target: Phosphate system positive regulatory protein PHO4, full length, GST-tagged (PHO4, Saccharomyces cerevisiae, UniProt P07270, residues 1-312)
Technique: competition protein-binding microarray
Form: double-stranded DNA, one strand shown
Medium: in vitro
Concentration: 2 µM
Notes: whole 60-bp probe, lowest competitor level
With: Cbf1 competitor, 0.05 µM
Direction: higher = stronger binding
All sequences stand within: … GTCTTGATTCGCTTGACGCTGCTG
Construct (chain): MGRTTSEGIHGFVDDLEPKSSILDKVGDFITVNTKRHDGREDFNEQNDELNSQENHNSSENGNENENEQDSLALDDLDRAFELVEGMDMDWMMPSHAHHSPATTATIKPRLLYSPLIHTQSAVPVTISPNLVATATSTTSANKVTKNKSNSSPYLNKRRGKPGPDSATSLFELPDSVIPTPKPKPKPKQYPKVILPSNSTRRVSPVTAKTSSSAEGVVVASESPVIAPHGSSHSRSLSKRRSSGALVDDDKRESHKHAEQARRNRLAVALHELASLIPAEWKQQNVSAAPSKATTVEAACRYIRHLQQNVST
Sequence | fluorescence intensity
AAAGCGGTAATTTGCCAAGTGGGTGCAGATATCTAT | 3720 a.u.
GAAGGAGTGAGGGACCCCGTGGGTACCGAACCCCGA | 10300 a.u.
GTAACCGGTCAAAGCCATGTGAGCCATGAATAAAGA | 6790 a.u.
TGCGCAACAACTTTTCACGTGGTTTTATGTCTAGAA | 12900 a.u.
AACTTCAGAAATTTGTCCGTGATGGTTTAATGGTCA | 4130 a.u.
CATACCCAACCTTGTGTTGTGGGTGAAGATATTTGT | 6050 a.u.
CGTCGTCTGGGACGTAGTGTGACAGGATGTCTTCCA | 4560 a.u.
CGGGCATGTTGCAAACGCGTGTGAAAAAAAAAGAGA | 10500 a.u.

Set 2
Target: Probable WRKY transcription factor 50, DNA-binding domain (WRKY50, Arabidopsis thaliana, UniProt Q8VWQ5, residues 99-173)
Technique: DNA-protein interaction ELISA
Form: double-stranded DNA, one strand shown
Medium: in vitro, bacterial lysate
Concentration: not given
Notes: whole dsDNA probe, crude lysate protein
Baseline: highest signal in screen
Direction: higher = stronger binding
Target sequence (chain): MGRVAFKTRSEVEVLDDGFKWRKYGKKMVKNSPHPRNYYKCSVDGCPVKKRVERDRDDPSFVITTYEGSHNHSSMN
Sequence | relative absorbance
AAAAAAATCAGCCTGACTCTGGGCGTAAAA | 49.1 % of maximum
AAAAAATAAGTAACCGAACGAAACTCAAAA | 18.1 % of maximum
AAAAAAGGTTGGTACGTCGAGTTCTTAAAA | 10.6 % of maximum
AAAAAACATTGATAAAATCTCCAGGCAAAA | 18 % of maximum
AAAAAATCGGGGATCCGGGCGGTTGCAAAA | 20.5 % of maximum
AAAAAAAGTCTGCGGCTGCAGGGCGGAAAA | 41.8 % of maximum
AAAAAAGTCTGCGTCCTACCCCATTCAAAA | 47.8 % of maximum
AAAAAAAGTATCAAAGCCTAGGGCTGAAAA | 10.5 % of maximum

Set 3
SMILES: CN(C)CC#Cc1ccc(OCCCc2sc(N3CCc4cccc(C(=O)Nc5nc6ccccc6s5)c4C3)nc2C(=O)O)c(F)c1
Technique: competition with immobilised ligand
Concentration: 1 µM
target | effect on | remaining binding [%]
Serine/threonine-protein kinase Nek6 (NEK6, Homo sapiens, UniProt Q9HC98) | cell-free assay | 100
Serine/threonine-protein kinase Nek7 (NEK7, Homo sapiens, UniProt Q8TDX7) | cell-free assay | 99
Vascular endothelial growth factor receptor 1 (FLT1, Homo sapiens, UniProt P17948) | cell-free assay | 92
Platelet-derived growth factor receptor beta (PDGFRB, Homo sapiens, UniProt P09619) | cell-free assay | 94
Cyclin-dependent kinase 11A (CDK11A, Homo sapiens, UniProt Q9UQ88) | binding | 100

Set 4
Target: Cyclin-dependent kinase 2, with cyclin E (CDK2, Homo sapiens, UniProt P24941)
Effect on: enzyme activity
Action: inhibitor
Concentration: 0.5 µM
Baseline: control
SMILES | remaining activity [%]
Cn1sc(=O)n(Cc2ccccc2)c1=O | 95.1
COc1ccc(OC)c2c(=S)c3ccccc3[nH]c12 | 77.9
COc1ccc(CNC(=O)Nc2ncc([N+](=O)[O-])s2)cc1 | 97.6
CO[C@H]1C[C@@H]2CC[C@@H](C)[C@@](O)(O2)C(=O)C(=O)N2CCCC[C@H]2C(=O)O[C@H]([C@H](C)C[C@@H]2CC[C@@H](O)[C@H](OC)C2)CC(=O)[C@H](C)/C=C(\C)[C@@H](O)[C@@H](OC)C(=O)[C@H](C)C[C@H](C)/C=C/C=C/C=C/1C | 91.3
NCCNc1ncc(C(N)=O)c(Nc2cccc(C(F)(F)F)c2)n1 | 89
Cc1ccc(NC(=O)c2ccc(CN3CCN(C)CC3)cc2)cc1Nc1nc(-c2cccnc2)cs1 | 95
O=C(O)c1ccc2c3c1cccc3c(=O)n1c3ccccc3nc21 | 90.9
Nc1[nH]nc2nc3ccccc3nc12 | 85.5
O=c1c2ccccc2[nH]c(=S)n1CCN1CCC(=C(c2ccc(F)cc2)c2ccc(F)cc2)CC1 | 97.3
Cn1c2ccccc2c2c3c(c4c5ccccc5n(CCC#N)c4c21)CNC3=O | 27.8
CCOC(=O)c1c(C)[nH]c(/C=C2\C(=O)Nc3ccccc32)c1C | 95.6
Nc1ccc2ncnc(NCCc3ccc(Oc4ccccc4)cc3)c2c1 | 95

Repeated from above (set 3):
target | effect on | remaining binding [%]
Platelet-derived growth factor receptor beta (PDGFRB, Homo sapiens, UniProt P09619) | cell-free assay | 94
Serine/threonine-protein kinase Nek6 (NEK6, Homo sapiens, UniProt Q9HC98) | cell-free assay | 100
Vascular endothelial growth factor receptor 1 (FLT1, Homo sapiens, UniProt P17948) | cell-free assay | 92
